Measurements from different studies.
Each numbered part is a random draw from the data of one study; scales do not carry over between parts.

Series 1
Target: Sal-like protein 4, full length isoform A (SALL4, Homo sapiens, UniProt Q9UJQ4, residues 1-1053)
Chain of UniProt Q9UJQ4 (whole entry, looked up): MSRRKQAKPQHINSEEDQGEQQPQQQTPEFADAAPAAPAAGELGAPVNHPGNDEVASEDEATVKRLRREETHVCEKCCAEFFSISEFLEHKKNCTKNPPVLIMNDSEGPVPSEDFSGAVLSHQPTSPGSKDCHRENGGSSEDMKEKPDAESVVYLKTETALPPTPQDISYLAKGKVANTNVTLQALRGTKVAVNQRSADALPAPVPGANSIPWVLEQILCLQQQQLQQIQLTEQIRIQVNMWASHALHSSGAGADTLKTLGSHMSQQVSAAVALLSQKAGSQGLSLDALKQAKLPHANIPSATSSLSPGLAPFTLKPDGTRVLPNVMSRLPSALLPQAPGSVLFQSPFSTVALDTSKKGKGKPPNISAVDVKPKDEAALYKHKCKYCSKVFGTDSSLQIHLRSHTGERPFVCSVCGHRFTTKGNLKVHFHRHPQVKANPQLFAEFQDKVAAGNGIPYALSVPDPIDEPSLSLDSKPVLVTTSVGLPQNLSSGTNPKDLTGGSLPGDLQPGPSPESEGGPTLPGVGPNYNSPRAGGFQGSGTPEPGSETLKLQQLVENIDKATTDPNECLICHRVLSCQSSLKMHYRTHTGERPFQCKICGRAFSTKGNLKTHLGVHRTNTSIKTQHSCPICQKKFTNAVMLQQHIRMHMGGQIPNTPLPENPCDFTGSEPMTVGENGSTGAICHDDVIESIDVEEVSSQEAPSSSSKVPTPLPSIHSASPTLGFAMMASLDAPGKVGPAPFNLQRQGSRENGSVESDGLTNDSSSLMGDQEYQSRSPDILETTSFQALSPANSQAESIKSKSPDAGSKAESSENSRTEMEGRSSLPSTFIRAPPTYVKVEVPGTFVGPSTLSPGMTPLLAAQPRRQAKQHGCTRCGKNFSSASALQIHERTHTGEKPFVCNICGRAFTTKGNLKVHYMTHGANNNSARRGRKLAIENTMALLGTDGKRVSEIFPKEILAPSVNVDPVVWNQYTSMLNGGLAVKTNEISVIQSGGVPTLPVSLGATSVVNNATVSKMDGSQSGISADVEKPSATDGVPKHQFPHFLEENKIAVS
Method: universal PBM
Molecule type: double-stranded DNA, one strand shown
Medium: in vitro
Tested at: 600 nM
Setting: 8-mer, flanks averaged, mean of replicates
Reading: higher = stronger binding
Quantity: E-score
AACGAAGG: -0.113
GGTACAAA: 0.155
TGAGCTCA: -0.103
CGCAATTC: 0.0193
CTGTCGTA: 0.0686
GCTAGCTA: -0.175
AAATCAAA: 0.322

Series 2
Target: Histone acetyltransferase KAT6A, winged helix 1, GST fusion (KAT6A, Homo sapiens, UniProt Q92794, residues 1-85)
Method: protein binding microarray
Molecule type: double-stranded DNA, one strand shown
Medium: in vitro
Tested at: not given
Setting: 8-mer, flanks averaged, mean of 2 arrays, mostly near background
Reference: not given
Reading: higher = stronger binding
Quantity: E-score
Construct (chain): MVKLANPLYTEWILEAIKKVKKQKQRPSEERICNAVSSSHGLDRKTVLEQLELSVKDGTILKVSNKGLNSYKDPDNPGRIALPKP
AAATGTTG: -0.0695
AACGAGCA: -0.171
TCGACAGA: -0.115
CGCTTCGC: 0.314
ACTTCCAG: -0.206
ACCCTGAA: -0.102
ATCAAAGC: -0.00995
CTTGCGCC: 0.36
CAAACGGC: 0.266

Series 3
Target: Centromere-binding protein 1, full length, His-tagged (CBF1, Saccharomyces cerevisiae, UniProt P17106, residues 1-351)
Chain of UniProt P17106 (whole entry, looked up): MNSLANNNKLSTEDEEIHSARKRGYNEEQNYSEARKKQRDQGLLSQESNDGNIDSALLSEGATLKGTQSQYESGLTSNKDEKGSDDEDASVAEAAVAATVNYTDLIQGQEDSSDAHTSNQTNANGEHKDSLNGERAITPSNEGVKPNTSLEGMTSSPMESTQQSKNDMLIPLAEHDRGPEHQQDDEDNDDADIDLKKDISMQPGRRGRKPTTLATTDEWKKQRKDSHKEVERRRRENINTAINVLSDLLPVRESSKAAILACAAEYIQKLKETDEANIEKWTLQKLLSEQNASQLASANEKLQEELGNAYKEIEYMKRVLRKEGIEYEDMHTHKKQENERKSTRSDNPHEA
Method: competition protein-binding microarray
Molecule type: double-stranded DNA, one strand shown
Medium: in vitro
Tested at: 2 µM
Setting: whole 60-bp probe, lowest competitor level
Together with: Pho4 competitor, 0.05 µM
Reading: higher = stronger binding
Quantity: fluorescence intensity
All sequences stand within: … GTCTTGATTCGCTTGACGCTGCTG
CGTCCTAGTGATTGTTAAGTGGGTGCCATGAGGAAG: 96.5 a.u.
GTAATGCCATGGTTTCGCGTGCTTTTTTCCCCTTGC: 100 a.u.
TTTAGGTACAACATACTCGTGTGTTGCTCACTTTGC: 76.7 a.u.
AAGTTAATCGTCGAGACCGTGACGGATCTTAAGCGC: 77.5 a.u.
ATTTTAACTTCATCTACCGTGATGGCTATTACCACC: 75.7 a.u.
CTTTCCCGATCTTTTCACGTGGCCTTAGCACATTTG: 744 a.u.
GTCTTGTCTCATTGTCACTTCACTTTCCCCACTTCA: 87.2 a.u.
CATACCCAACCTTGCCGAGTGGGTGAAGATATTTGT: 69.1 a.u.

Mixed results
PhoQ, residues 284 288 289 292 302 303 TSTLRA  fold induction (PhoP, residues 12 14 15 18 19 SMASL (Escherichia coli, UniProt P23836); Sort-seq, item: YFP reporter; E. coli; PhoQ-PhoP variant library, together with: 10 µM Mg2+; reference: high Mg2+ state, higher = stronger signaling): 3.37

A few entries again (series 2):
TCGACAGA: -0.115
ACCCTGAA: -0.102
CGCTTCGC: 0.314
